Results pooled from the literature.
Compare with care: the assays were run in different laboratories. ± gives the spread as reported.
NPR2: Atrial natriuretic peptide receptor 2 (NPR2, Homo sapiens, UniProt P20594)
Sequence of UniProt P20594 (whole entry, looked up): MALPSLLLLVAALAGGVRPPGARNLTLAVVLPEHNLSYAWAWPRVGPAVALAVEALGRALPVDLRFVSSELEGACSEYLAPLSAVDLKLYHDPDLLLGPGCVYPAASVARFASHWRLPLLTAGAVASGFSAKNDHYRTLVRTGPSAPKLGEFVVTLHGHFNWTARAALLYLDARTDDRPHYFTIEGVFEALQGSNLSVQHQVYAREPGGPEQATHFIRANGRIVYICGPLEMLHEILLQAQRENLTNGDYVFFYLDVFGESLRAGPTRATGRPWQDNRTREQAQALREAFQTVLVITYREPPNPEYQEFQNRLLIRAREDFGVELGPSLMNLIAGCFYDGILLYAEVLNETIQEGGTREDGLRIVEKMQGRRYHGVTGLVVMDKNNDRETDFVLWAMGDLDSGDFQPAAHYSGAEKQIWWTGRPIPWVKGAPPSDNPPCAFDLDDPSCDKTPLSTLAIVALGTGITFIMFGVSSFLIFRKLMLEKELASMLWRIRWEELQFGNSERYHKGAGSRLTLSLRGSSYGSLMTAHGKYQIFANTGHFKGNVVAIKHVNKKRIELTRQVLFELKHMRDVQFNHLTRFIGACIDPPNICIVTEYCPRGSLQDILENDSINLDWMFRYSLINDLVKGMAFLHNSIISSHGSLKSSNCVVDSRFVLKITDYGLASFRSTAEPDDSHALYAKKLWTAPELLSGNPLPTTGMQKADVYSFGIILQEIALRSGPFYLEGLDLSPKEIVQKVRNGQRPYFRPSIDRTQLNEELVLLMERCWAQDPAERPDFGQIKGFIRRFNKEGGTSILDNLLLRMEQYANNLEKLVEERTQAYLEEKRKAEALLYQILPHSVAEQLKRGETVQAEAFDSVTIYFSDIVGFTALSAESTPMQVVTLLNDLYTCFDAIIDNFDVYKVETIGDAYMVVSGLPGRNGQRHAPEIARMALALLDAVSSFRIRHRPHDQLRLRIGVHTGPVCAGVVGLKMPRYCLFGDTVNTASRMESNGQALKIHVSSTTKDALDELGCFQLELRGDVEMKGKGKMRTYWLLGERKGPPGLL
TRPA1: Transient receptor potential cation channel subfamily A member 1 (TRPA1, Homo sapiens, UniProt O75762)
Sequence of UniProt O75762 (whole entry, looked up): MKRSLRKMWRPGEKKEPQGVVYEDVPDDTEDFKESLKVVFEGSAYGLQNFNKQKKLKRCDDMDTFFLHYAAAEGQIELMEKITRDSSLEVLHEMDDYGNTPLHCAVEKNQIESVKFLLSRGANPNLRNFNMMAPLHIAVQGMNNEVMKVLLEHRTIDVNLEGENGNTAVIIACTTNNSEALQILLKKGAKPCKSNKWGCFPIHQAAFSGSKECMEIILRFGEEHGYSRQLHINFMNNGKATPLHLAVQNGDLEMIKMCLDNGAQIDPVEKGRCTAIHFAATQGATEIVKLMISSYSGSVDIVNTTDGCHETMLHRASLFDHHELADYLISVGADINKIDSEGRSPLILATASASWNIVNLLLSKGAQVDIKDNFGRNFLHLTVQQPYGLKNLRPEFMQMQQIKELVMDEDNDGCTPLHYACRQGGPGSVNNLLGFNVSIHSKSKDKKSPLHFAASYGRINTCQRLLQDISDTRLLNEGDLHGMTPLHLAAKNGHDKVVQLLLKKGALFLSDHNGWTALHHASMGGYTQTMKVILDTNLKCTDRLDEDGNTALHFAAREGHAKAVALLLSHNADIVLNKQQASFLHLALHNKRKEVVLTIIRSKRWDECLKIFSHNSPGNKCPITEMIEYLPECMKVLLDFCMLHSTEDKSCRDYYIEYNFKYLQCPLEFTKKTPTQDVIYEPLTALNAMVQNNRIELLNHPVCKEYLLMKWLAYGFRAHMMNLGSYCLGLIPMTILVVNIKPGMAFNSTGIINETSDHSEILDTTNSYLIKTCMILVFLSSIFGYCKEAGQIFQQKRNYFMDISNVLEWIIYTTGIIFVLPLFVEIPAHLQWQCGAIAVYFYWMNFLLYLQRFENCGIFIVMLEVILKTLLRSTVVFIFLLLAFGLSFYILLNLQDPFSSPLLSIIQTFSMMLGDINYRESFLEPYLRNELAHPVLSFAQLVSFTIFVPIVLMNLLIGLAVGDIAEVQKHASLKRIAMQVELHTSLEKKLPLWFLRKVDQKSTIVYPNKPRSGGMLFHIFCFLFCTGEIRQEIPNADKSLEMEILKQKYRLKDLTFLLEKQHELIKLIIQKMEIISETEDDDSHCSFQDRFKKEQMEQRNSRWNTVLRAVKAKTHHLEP
Methoprene-tolerant protein with Taiman: Methoprene-tolerant protein, with Taiman (Drosophila melanogaster, UniProt O44118)
Sequence of UniProt Q9HC29 (whole entry, looked up): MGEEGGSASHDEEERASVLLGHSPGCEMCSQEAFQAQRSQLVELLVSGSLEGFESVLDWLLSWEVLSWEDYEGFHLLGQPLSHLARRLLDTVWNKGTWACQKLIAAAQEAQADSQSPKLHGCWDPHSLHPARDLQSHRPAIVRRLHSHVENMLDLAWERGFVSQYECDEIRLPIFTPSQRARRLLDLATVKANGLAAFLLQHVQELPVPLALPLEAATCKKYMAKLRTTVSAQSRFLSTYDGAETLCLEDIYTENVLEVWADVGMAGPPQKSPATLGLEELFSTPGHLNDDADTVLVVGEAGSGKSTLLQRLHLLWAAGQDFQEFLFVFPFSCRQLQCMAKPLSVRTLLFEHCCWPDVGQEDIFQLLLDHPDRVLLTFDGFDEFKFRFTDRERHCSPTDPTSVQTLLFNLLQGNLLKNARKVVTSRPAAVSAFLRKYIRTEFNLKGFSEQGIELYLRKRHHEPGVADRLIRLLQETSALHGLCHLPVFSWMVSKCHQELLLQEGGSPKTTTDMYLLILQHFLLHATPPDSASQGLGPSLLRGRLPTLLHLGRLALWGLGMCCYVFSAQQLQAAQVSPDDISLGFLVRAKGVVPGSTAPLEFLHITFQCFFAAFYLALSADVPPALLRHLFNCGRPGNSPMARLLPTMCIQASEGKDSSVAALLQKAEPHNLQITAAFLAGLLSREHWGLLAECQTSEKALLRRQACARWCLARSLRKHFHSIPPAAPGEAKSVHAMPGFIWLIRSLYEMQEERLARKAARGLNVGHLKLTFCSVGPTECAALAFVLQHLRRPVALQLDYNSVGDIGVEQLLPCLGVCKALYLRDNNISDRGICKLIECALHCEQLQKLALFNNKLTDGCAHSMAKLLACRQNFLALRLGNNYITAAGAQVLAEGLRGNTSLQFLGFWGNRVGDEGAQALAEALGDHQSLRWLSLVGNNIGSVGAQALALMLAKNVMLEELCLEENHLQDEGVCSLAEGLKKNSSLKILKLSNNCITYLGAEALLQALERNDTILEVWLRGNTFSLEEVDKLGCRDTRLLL
Sequence of UniProt P62813 (whole entry, looked up): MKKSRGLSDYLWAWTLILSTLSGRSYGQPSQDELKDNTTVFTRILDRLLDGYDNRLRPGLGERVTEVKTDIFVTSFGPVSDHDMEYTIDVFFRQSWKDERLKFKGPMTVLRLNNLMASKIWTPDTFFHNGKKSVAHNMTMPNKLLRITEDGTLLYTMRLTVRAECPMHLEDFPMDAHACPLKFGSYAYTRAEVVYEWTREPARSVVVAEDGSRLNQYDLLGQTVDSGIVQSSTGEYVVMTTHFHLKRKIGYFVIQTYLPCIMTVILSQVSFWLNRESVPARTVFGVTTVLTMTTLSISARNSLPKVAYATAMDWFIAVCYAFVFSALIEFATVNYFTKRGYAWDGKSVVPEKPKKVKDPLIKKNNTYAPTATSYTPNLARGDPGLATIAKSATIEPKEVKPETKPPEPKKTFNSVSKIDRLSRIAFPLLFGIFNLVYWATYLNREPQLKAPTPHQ
Sequence of UniProt O95136 (whole entry, looked up): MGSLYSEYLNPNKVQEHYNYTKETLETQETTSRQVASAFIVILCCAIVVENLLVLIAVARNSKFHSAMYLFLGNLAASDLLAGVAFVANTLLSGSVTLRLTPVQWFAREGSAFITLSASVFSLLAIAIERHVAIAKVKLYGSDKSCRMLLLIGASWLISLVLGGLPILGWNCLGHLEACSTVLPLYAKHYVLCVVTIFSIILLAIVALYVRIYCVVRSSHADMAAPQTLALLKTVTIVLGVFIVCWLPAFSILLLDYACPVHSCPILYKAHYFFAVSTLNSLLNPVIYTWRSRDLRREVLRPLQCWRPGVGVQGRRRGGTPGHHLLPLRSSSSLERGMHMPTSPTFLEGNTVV
Sequence of UniProt P43088 (whole entry, looked up): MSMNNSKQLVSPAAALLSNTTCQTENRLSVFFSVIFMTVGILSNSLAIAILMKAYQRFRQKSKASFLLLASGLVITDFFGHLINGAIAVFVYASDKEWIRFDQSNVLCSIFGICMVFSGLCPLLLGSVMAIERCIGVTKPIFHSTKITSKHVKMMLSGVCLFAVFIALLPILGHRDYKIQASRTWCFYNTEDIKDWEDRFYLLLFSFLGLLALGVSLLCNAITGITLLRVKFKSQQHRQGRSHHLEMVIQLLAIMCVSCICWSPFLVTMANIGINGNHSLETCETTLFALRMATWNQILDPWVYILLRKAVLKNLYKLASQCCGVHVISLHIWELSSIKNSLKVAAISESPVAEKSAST
Sequence of UniProt P15431 (whole entry, looked up): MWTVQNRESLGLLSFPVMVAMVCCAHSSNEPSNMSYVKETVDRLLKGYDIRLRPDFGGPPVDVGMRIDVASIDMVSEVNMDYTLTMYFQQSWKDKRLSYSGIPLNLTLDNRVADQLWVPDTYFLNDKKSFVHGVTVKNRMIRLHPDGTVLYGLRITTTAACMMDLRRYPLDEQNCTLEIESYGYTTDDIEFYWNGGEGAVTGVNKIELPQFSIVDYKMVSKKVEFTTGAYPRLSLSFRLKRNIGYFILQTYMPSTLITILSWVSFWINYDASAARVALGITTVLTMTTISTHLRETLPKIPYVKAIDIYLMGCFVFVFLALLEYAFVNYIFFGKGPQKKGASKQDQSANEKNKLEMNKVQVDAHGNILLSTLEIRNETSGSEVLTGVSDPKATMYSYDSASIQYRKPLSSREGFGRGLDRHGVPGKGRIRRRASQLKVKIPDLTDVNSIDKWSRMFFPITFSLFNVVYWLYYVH
Sequence of UniProt P62942 (whole entry, looked up): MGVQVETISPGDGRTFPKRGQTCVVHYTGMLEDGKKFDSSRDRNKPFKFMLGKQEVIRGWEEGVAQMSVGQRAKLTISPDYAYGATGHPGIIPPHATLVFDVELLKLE

SMILES | target | test | test system | conditions | EC50
CC(C)C[C@H](NC(=O)[C@H](C)NC(=O)CNC(=O)[C@H](CC(C)C)NC(=O)[C@@H](NC(=O)[C@H](CC(N)=O)NC(=O)[C@H](CCC(=O)O)NC(=O)[C@@H]1CCCN1C(=O)[C@@H]1CCCN1C(=O)[C@@H](NC(=O)[C@H](CCC(=O)O)NC(=O)[C@@H]1CCCN1C(=O)CNC(=O)[C@H](CC(C)C)NC(=O)[C@H](CC(=O)O)NC(=O)[C@H](CCC(N)=O)NC(=O)[C@H](CC(=O)O)NC(=O)[C@@H](NC(=O)[C@@H](N)CO)C(C)C)C(C)C)C(C)C)C(=O)N[C@@H](CC(C)C)C(=O)N[C@@H](CCCNC(=N)N)C(=O)N[C@H](C(=O)O)C(C)C | G-protein coupled receptor 83 (Mus musculus, UniProt P30731) | GTPγS binding, agonist, radiometric |  | cell membranes | ~0.0002 µM
S=C(c1ccc(-c2cc(Cl)ccc2Cl)o1)N1CCN(c2ccccc2)CC1 | NPR2 | cGMP production, positive allosteric modulator, cGMP HTRF | HEK293 expressing human GC-B | added: CNP at EC30 | > 10 µM
CC[C@H](C)[C@H](NC(=O)CNC(=O)C1CCN(C(=O)[C@H](CO)NC(=O)[C@@H](N)Cc2c[nH]cn2)CC1)C(=O)N[C@@H](Cc1ccccc1)C(=O)N[C@H](C(=O)N[C@@H](CC(=O)O)C(=O)N[C@@H](CO)C(=O)N[C@@H](Cc1ccc(O)cc1)C(=O)N[C@@H](CO)C(=O)N[C@@H](CCCNC(=N)N)C(=O)N[C@@H](Cc1ccc(O)cc1)C(=O)N[C@@H](CCCNC(=N)N)C(=O)N[C@@H](CCCCN)C(=O)NC(C)(C)C(=O)N[C@@H](C)C(=O)N[C@@H](C)C(=O)N[C@H](C(=O)N[C@@H](CCCCN)C(=O)N[C@@H](CCCCN)C(=O)N[C@@H](Cc1ccc(O)cc1)C(=O)N[C@@H](CC(C)C)C(=O)N[C@@H](C)C(=O)N[C@@H](C)C(=O)N[C@H](C(=O)N[C@@H](CC(C)C)C(=O)NC(C)(C)C(=O)N[C@@H](CCCCN)C(=O)N[C@@H](CCCNC(=N)N)C(=O)N[C@@H](Cc1ccc(O)cc1)C(=O)N[C@@H](CCCCN)C(=O)N[C@@H](CCC(N)=O)C(=O)N[C@@H](CCCCN)C(=O)N[C@H](C(=O)N[C@@H](CCCCN)C(=O)N[C@@H](CC(N)=O)C(=O)N[C@H](CCCCN)C(N)=O)C(C)C)C(C)C)C(C)C)[C@@H](C)O | Vasoactive intestinal polypeptide receptor 2 (VIPR2, Homo sapiens, UniProt P41587) | cAMP production, agonist | PANC-1 transfected with receptor |  | > 1 µM
CC1(CO)CCCC2(C)C1CCC1(C)c3cocc3CCC12 (centres unmarked) | Progesterone receptor (PGR, Homo sapiens, UniProt P06401) | binding, fluorescence polarization competition |  | ligand-binding domain | ~0.5 µM
O=C(O)/C=C/c1cccc(NC(=O)c2cc(-c3ccccc3)ccc2F)c1 | Prostaglandin F2-alpha receptor (PTGFR, Homo sapiens, UniProt P43088) | calcium signal, agonist, fluorescence |  |  | > 10 µM
O=C(NC[C@H](Cc1ccccc1)N1CCC(O)(C(F)(F)F)CC1)C1(c2ccc(Cl)cc2)CCCC1 | TRPA1 | calcium signal, agonist |  |  | > 10 µM
C[C@@H](Nc1c(Nc2ccncc2)c(=O)c1=O)c1ccccc1 | C-X-C chemokine receptor type 2 (CXCR2, Homo sapiens, UniProt P25025) | β-arrestin recruitment, agonist |  |  | 0.254 µM
C=C1CCN2C(=O)COc3cccc(c3)C(CCc3ccc(OC)c(OC)c3)OC(=O)C3CCCCN3C(=O)C(=O)C(C)(C)COC(=O)C(CC(C)C)NC(=O)C2C1 (centres unmarked) | Peptidyl-prolyl cis-trans isomerase FKBP1A (FKBP1A, Homo sapiens, UniProt P62942) | binding, competitor, TR-FRET |  | added: FITC-SLF tracer | 0.56 µM
O=C(C1CC=CCC1)N1CCC(CSCc2ccco2)CC1 (centres unmarked) | Methoprene-tolerant protein with Taiman | reporter gene, agonist | HEK293T expressing Drosophila Met/Tai | 24 h | > 100 µM
CCOC(=O)CCC(NC(=O)C(NC(=O)c1c(C)nn(-c2ccc(F)cc2)c1C)C(C)C)C(=O)OCC (centres unmarked) | Nucleotide-binding oligomerization domain-containing protein 2 (NOD2, Homo sapiens, UniProt Q9HC29) | reporter gene, agonist |  |  | ~1 µM
N=C(N)NCCC[C@H](NC(=O)[C@H](CC(=O)O)NC(=O)[C@@H]1CSCCCC(=O)NCC(=O)N[C@@H](Cc2c[nH]cn2)C(=O)N[C@H](Cc2ccccc2)C(=O)N[C@@H](CCCNC(=N)N)C(=O)N[C@@H](Cc2c[nH]c3ccccc23)C(=O)N1)C(=O)N[C@@H](Cc1ccccc1)C(=O)NCC(N)=O | Melanocortin receptor 5 (MC5R, Homo sapiens, UniProt P33032) | cAMP, agonist |  |  | 0.873 µM
N#CCCN1CCN(C(=S)c2ccc(-c3cccc(Cl)c3)o2)CC1 | NPR2 | cGMP production, positive allosteric modulator, cGMP HTRF | HEK293 expressing human GC-B | added: CNP at EC30 | 0.83 µM
Cc1ccc2nc(-c3ccc(NC(=O)C(F)(F)C4(F)OC(F)(F)C(F)(F)C4(F)F)cc3)sc2c1 (centres unmarked) | Methoprene-tolerant protein with Taiman | reporter gene, agonist | HEK293T expressing Drosophila Met/Tai | 24 h | > 100 µM
S=C(c1ccc(-c2cc(Cl)ccc2Cl)o1)N1CCNCC1 | NPR2 | cGMP production, positive allosteric modulator, cGMP HTRF | HEK293 expressing human GC-B | added: CNP at EC30 | > 10 µM
CC(C)CN(CC(C)C)C(=O)/C=C/C=C/c1ccc2c(c1)OCO2 | Gabrb1/Gabra1 (Rattus norvegicus, UniProt P15431+P62813) | GABA current potentiation, positive modulator, two-electrode voltage clamp | Xenopus oocytes expressing α1β1 | added: GABA EC3-7 | 13.3 ± 2.9 µM
N#CCCN1CCN(C(=O)c2ccc(-c3cc(Cl)ccc3Cl)o2)CC1 | NPR2 | cGMP production, positive allosteric modulator, cGMP HTRF | HEK293 expressing human GC-B | added: CNP at EC30 | > 10 µM
CC[C@H]1O[C@H]1C/C=C\C/C=C\C/C=C\C/C=C\C/C=C\CCC(=O)O | TRPA1 | calcium signal, agonist, fluorescence |  |  | 31.4 µM
S=C(c1ccc(-c2cc(Cl)ccc2Cl)o1)N1CCN(CCc2cccnc2)CC1 | NPR2 | cGMP production, positive allosteric modulator, cGMP HTRF | HEK293 expressing human GC-B | added: CNP at EC30 | > 8 µM
Cc1cc(C(=O)Cn2ccccc2=O)c(C)n1Cc1ccccc1 | Sphingosine 1-phosphate receptor 2 (S1PR2, Homo sapiens, UniProt O95136) | reporter gene, agonist |  |  | > 10 µM
N#CCCN1CCN(C(=S)c2ccc(-c3ccccc3)o2)CC1 | NPR2 | cGMP production, positive allosteric modulator, cGMP HTRF | HEK293 expressing human GC-B | added: CNP at EC30 | 6.41 µM
CC(C)C[C@H](NC(=O)[C@H](CC(C)C)NC(=O)[C@H](Cc1ccccc1)NC(=O)[C@@H](N)CO)C(=O)N[C@@H](CCCN=C(N)N)C(=O)N[C@@H](CC(N)=O)C(=O)O | Proteinase-activated receptor 1 (F2R, Homo sapiens, UniProt P25116) | ATP release, agonist | human platelets |  | ~3 µM
O=C(Nc1ccc2c(c1)OCO2)c1ccc(OC(F)C(F)(F)C(F)(F)F)cc1 (centres unmarked) | Methoprene-tolerant protein with Taiman | reporter gene, agonist | HEK293T expressing Drosophila Met/Tai | 24 h | > 100 µM
N#CCCN1CCN(C(=S)c2cc(-c3cc(Cl)ccc3Cl)no2)CC1 | NPR2 | cGMP production, positive allosteric modulator, cGMP HTRF | HEK293 expressing human GC-B | added: CNP at EC30 | > 10 µM

Excerpt of the above:
SMILES | target | test | test system | conditions | EC50
O=C(NC[C@H](Cc1ccccc1)N1CCC(O)(C(F)(F)F)CC1)C1(c2ccc(Cl)cc2)CCCC1 | TRPA1 | calcium signal, agonist |  |  | > 10 µM
C[C@@H](Nc1c(Nc2ccncc2)c(=O)c1=O)c1ccccc1 | C-X-C chemokine receptor type 2 (CXCR2, Homo sapiens, UniProt P25025) | β-arrestin recruitment, agonist |  |  | 0.254 µM
